Results pooled from the literature.
Each line is one published result; not all experiments were run side by side.
CDK4 with cyclin D1: Cyclin-dependent kinase 4, with cyclin D1 (CDK4, Homo sapiens, UniProt P11802)
CDK4: Cyclin-dependent kinase 4 (CDK4, Homo sapiens, UniProt P11802)
CDK4 with cyclin D3: Cyclin-dependent kinase 4, with cyclin D3 (CDK4, Homo sapiens, UniProt P11802)

COc1cc(Nc2nccc(-c3cnn4nc(OC)ccc34)n2)cc(C(F)(F)F)c1 — remaining binding (CDK4 with cyclin D1; binding, competition with immobilised ligand; 1 µM): 96%
Cc1cnc2nc1Nc1cccc(c1)COC/C=C/COCc1cc(ccc1OCCN1CCOCC1)N2 — remaining binding (CDK4; binding; 0.1 µM): 96%
C[C@]1(O)CCCN(c2nc(Nc3ccc(S(=O)(=O)N[C@H]4CC[C@H](CN5CCN(c6ccc(C7CCC(=O)NC7=O)cc6F)CC5)CC4)cc3)ncc2C(F)(F)F)C1 (stereo partly shown) — remaining binding (CDK4; binding, competition with immobilised ligand; 1 µM): 100%
CC(C)=CC1OC(C)(C)C2C=C3C(=O)C(Cl)=CC(O)C3C3C(O)C4OC4C(=O)C132 (stereo not shown) — remaining binding (CDK4 with cyclin D3; cell-free assay, competition with immobilised ligand; 10 µM): 87%
Nc1ncc2c(n1)-c1c([nH]c3ccc(C4=CCOCC4)cc13)CCC2 — remaining binding (CDK4; binding, competition with immobilised ligand; 1 µM): 100%
CNC(=O)C1CCN(c2cc(C)c(F)cc2NC(=O)c2ccc(-c3cc(O)ccc3C)c(C)c2)CC1 — remaining binding (CDK4 with cyclin D1; binding, competition with immobilised ligand; 1 µM): 100%
C=CC(=O)N1CCCC(n2c(=O)c3ncccc3n(Cc3ccc(Oc4ccccc4)cc3)c2=O)C1 (stereo not shown) — remaining binding (CDK4 with cyclin D1; cell-free assay, competition with immobilised ligand; 1 µM): 79%
CCN1CCN(Cc2ccc(C(=O)Nc3ccc(C)c(NCc4cnc5[nH]ccc5c4OC)c3)cc2C(F)(F)F)CC1 — remaining binding (CDK4 with cyclin D3; binding, competition with immobilised ligand; 1 µM): 72%
CNC1C[S+]2CC[S+]3CC[S+](C1)[Ru-4]321([N]=C=S)[n]2c3ccc(OC)cc3c3c4c(c5cc(F)c[n+]1c5c32)C(=O)NC4=O (stereo not shown) — remaining binding (CDK4 with cyclin D1; KinomeScan; 0.1 µM; relative to: untreated): 95%
C=CC(=O)N1CCc2ccc(-n3c(=O)ccc4cnc5ccc(-c6cnn(C)c6)cc5c43)cc21 — remaining binding (CDK4 with cyclin D3; KINOMEscan; 1 µM; relative to: DMSO control): 100%
COc1c(Cl)cccc1Nc1c(-c2ccncc2C#C[C@@]2(C)CCCN2C(=O)/C=C/CN(C)C)[nH]c2c1C(=O)NCC2 — remaining binding (CDK4 with cyclin D1; binding, competition with immobilised ligand; 3 µM): 73%
O=C(Nc1cc(-c2ccnc3[nH]ccc23)c(Cl)cn1)[C@H]1CCC[C@@H](NC(=O)C(F)(F)F)C1 — remaining binding (CDK4 with cyclin D1; kinome scan; 0.1 µM; relative to: control): 12%
Cc1ccc(-c2c(/C=C(\C#N)C(=O)NC(C)C)n(CCCO)c3ncnc(N)c23)cc1 — remaining binding (CDK4 with cyclin D3; cell-free assay, competition with immobilised ligand; 1 µM): 95%

Some of these lines once more:
COc1c(Cl)cccc1Nc1c(-c2ccncc2C#C[C@@]2(C)CCCN2C(=O)/C=C/CN(C)C)[nH]c2c1C(=O)NCC2 — remaining binding (CDK4 with cyclin D1; binding, competition with immobilised ligand; 3 µM): 73%
